Measured values pooled from the literature.
Each line is one published result; not all experiments were run side by side. ± marks the error that the study gave.
CDK5: Cyclin-dependent kinase 5 (CDK5, Homo sapiens, UniProt Q00535)
Chain of UniProt Q00535 (whole entry, looked up): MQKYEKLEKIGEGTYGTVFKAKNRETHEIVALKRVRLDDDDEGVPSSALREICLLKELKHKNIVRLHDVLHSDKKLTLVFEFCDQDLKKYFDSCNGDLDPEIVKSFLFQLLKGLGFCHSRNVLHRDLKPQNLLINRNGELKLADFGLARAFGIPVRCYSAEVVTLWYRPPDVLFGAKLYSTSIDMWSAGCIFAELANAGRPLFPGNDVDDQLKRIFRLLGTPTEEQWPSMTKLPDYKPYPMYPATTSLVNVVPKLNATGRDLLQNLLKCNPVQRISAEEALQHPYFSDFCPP
BCHE: Cholinesterase (BCHE, Equus caballus, UniProt P81908)
Chain of UniProt P81908 (whole entry, looked up): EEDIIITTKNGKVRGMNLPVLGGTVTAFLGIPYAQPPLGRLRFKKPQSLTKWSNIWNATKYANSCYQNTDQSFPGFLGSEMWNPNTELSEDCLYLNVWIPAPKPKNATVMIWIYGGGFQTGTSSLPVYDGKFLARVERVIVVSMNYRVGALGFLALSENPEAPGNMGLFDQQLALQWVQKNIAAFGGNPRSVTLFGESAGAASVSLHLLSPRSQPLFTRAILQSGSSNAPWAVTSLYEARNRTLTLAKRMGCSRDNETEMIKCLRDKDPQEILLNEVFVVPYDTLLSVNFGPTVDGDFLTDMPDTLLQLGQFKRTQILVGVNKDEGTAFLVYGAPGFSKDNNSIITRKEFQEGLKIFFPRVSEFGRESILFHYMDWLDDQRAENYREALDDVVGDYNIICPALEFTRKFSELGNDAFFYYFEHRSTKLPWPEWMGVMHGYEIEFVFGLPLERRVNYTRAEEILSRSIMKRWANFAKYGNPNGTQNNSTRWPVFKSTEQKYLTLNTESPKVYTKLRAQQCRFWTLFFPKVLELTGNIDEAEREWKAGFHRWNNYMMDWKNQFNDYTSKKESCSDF
AKR1C3: Aldo-keto reductase family 1 member C3 (AKR1C3, Homo sapiens, UniProt P42330)
Chain of UniProt P42330 (whole entry, looked up): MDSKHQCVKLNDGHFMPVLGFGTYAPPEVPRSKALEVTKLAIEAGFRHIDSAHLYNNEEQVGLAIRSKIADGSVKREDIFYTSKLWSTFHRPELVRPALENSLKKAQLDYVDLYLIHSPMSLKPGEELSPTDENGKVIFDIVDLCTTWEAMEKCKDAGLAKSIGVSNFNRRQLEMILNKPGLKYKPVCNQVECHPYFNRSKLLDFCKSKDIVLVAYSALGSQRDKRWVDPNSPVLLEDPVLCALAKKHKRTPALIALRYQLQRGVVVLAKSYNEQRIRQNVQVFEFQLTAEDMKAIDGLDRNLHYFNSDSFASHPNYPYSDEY
Chain of UniProt P29350 (whole entry, looked up): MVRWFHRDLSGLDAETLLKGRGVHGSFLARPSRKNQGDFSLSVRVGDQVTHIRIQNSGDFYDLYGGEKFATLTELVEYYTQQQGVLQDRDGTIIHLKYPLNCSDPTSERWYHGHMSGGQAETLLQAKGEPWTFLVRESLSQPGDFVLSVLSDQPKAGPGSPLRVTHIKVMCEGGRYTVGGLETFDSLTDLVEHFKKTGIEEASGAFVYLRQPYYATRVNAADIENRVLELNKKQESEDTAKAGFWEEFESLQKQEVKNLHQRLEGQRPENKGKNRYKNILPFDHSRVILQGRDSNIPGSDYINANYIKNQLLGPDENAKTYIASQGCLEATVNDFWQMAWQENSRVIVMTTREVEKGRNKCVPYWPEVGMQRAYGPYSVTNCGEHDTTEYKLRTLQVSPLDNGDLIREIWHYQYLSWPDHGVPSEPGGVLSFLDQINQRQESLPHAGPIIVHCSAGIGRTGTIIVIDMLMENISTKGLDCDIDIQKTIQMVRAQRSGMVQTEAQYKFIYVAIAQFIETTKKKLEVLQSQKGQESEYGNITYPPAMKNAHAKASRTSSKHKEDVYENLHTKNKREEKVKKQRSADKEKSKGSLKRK
Chain of UniProt P22894 (whole entry, looked up): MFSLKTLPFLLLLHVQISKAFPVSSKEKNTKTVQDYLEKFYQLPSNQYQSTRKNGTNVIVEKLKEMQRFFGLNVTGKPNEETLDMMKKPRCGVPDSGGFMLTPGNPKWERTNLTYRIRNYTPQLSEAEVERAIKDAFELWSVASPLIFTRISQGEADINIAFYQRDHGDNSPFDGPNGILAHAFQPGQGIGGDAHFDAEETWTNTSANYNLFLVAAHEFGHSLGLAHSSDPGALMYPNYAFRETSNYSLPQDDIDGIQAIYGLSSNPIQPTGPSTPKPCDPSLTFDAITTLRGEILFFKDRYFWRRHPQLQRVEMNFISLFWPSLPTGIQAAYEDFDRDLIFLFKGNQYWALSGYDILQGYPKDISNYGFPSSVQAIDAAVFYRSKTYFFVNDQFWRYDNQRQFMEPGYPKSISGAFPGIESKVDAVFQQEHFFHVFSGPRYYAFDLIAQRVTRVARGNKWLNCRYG
Chain of UniProt Q16644 (whole entry, looked up): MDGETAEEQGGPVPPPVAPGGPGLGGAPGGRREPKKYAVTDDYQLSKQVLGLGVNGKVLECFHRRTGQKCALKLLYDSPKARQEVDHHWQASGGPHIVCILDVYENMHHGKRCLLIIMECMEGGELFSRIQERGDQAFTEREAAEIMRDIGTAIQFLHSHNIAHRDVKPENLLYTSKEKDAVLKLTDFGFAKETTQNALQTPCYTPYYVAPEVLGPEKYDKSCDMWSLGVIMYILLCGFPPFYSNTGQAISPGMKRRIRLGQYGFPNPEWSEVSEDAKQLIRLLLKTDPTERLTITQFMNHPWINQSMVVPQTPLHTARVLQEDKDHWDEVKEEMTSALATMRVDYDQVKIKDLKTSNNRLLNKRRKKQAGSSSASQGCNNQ
Chain of UniProt P12822 (whole entry, looked up): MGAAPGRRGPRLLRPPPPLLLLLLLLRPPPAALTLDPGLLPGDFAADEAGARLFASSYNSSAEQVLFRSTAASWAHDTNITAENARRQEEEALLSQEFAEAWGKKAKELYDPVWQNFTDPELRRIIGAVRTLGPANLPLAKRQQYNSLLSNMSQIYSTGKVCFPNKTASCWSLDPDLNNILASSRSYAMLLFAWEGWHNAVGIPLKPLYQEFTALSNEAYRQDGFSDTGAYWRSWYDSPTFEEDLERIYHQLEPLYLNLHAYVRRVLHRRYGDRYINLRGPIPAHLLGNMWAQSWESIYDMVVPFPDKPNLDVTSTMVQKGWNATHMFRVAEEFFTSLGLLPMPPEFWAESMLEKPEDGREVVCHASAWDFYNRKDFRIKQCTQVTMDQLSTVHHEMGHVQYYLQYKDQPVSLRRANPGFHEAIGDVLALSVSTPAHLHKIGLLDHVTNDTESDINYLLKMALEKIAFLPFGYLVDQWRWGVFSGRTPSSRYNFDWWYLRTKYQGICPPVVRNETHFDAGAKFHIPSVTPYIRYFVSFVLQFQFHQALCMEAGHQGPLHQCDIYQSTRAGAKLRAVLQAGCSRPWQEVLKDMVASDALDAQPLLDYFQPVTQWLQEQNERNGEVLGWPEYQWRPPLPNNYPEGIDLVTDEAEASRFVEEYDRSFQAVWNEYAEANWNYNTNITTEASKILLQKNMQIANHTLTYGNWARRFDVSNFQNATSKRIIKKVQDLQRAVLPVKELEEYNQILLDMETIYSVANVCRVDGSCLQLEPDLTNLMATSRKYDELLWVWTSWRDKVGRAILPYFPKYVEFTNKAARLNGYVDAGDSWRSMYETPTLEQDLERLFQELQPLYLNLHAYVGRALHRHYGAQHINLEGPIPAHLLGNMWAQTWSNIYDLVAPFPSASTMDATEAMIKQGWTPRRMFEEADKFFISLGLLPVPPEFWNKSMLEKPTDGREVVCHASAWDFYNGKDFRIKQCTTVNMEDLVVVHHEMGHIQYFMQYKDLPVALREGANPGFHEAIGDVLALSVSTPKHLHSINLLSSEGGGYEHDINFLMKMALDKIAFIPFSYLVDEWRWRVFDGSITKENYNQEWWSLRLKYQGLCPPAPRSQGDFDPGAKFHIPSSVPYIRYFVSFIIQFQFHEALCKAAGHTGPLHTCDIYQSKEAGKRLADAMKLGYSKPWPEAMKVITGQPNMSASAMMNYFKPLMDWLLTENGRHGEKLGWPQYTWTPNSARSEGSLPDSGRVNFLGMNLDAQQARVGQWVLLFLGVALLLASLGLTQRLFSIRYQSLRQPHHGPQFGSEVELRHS
Chain of UniProt P09958 (whole entry, looked up): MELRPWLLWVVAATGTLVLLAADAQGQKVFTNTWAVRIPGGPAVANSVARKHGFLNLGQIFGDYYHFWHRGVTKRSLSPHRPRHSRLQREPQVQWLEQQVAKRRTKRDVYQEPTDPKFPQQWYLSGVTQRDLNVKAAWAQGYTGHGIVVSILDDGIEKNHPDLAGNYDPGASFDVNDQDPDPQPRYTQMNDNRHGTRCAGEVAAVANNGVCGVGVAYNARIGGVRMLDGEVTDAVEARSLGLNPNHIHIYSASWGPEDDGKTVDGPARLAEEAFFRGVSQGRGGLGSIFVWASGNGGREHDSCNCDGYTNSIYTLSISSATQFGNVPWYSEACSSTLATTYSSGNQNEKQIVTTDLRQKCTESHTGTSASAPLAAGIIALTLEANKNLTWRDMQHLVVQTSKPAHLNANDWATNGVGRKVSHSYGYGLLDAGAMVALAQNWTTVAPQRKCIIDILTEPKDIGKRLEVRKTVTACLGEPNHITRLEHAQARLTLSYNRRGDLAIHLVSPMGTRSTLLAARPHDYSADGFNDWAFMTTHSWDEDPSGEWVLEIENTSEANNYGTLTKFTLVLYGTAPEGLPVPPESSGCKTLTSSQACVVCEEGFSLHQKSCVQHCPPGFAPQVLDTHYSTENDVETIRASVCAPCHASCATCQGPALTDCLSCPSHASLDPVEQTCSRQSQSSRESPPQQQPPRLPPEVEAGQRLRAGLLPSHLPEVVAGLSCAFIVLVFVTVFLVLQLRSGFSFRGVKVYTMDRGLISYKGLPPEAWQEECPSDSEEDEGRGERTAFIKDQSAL

`O=C(C[P+]([Au-][Cl])(c1ccccc1)c1ccccc1)[O][Ti+2][O]C(=O)C[P+]([Au-][Cl])(c1ccccc1)c1ccccc1.c1cc[cH-]c1.c1cc[cH-]c1` gave an inhibition of no less than 50% (MAPKAPK3 (Homo sapiens, UniProt Q16644); kinase activity; 10 µM).
For `NC1CCCCC1N.O=C1[O][Pt]([O]C(=O)c2ccc(P(c3ccccc3)c3ccccc3)cc2)([O]C(=O)c2ccc(P(c3ccccc3)c3ccccc3)cc2)[O]C1=O.[Cl][Au].[Cl][Au]`, the inhibition was 47.3% (thioredoxin reductase; 1 µM).
For `CC(C)C[C@@H]1NC(=O)[C@H](C(C)C)NC(=O)[C@H](C)NC(=O)[C@H](Cc2ccc(O)cc2)NC(=O)[C@H](CCC(N)=O)NC(=O)[C@H](CC(C)C)NC(=O)[C@@H](Cc2ccc(O)cc2)NC(=O)CSC[C@@H](C(N)=O)NC(=O)[C@H](CCC(=O)O)NC(=O)[C@H](CCCNC(=N)N)NC(=O)[C@H](CCCNC(=N)N)NC(=O)[C@H](CCCCN)NC(=O)[C@H](Cc2c[nH]cn2)NC(=O)[C@H](CCCNC(=N)N)NC1=O`, inhibition read “inactive” (Furin (FURIN, Homo sapiens, UniProt P09958); enzyme activity; 10 µM).
The Emax of `CCCCCn1cc(C(=O)c2ccc3ccccc3c2)c2ccccc21` is reported as 106 ± 2.8% (CNR1 (Homo sapiens, UniProt P21554, L193I); Gαi1 engagement, agonist, BRET; relative to: reference agonist at wild-type CB1).
`N=C(N)NCCC[C@@H]1NC(=O)[C@H](CCCCNC(=O)CCOCCOCCOCCOCCNC(=O)CN2CCN(CC(=O)O)CCN(CC(=O)O)CCN(CC(=O)O)CC2)NC(=O)[C@@H](Cc2ccccc2)NC(=O)[C@H](CC(=O)O)NC(=O)CNC1=O` [indium-111 labelled] has a tissue uptake of 0.03 %ID/g (female athymic nude mice, brain; intravenous, 3 µCi, 24 h, U-87 MG glioma xenograft).
For `C=CCn1cnc2c(NCc3ccc(C)s3)nc(N[C@H](CC)CO)nc21`, the inhibition was 10 to 20% (CDK5; enzyme activity; 2 µM).
With `COc1ccc(Nc2c3c(nc4ccc(Cl)cc24)CCCC3)nc1` the inhibition was -63.8% (BCHE; enzyme activity, inhibitor; 50 µM).
The inhibition of `OC[C@H]1O[C@@H](Oc2cccc(-c3ccccc3)c2)[C@H](O)[C@@H](O)[C@H]1O` is reported as 57% (Adhesin FmlH, lectin domain (Escherichia coli, UniProt Q1RBS0); binding to desialylated mucin, ELISA competition; UPEC UTI89; 100 µM).
For `c1cncc(Nc2c3c(nc4ccccc24)CCCC3)c1`, the inhibition was 85.8% (BCHE; enzyme activity, inhibitor; 50 µM).
The inhibition of `CC(=O)NC(Cc1ccc(Br)c(Cl)c1)C(=O)N[C@@H](C)C(=O)N1CCC[C@H]1C(=O)N1CCC[C@H]1C(=O)N[C@@H](CCC(=O)O)C(=O)N[C@@H](Cc1c[nH]cn1)C(=O)N[C@@H](CO)C(=O)N[C@H](C(=O)N[C@@H](C)C(N)=O)[C@@H](C)OP(=O)(O)O` (stereo partly shown) is reported as 0.49% (Cyclin-dependent kinase 5, with p35 (CDK5, Homo sapiens, UniProt Q00535); enzyme activity, inhibitor; 10 µM).
For `N=C(N)NCCC[C@@H]1NC(=O)[C@H](CCCCNC(=O)CC[C@H](NC(=O)CCOCCOCCOCCOCCNC(=O)CN2CCN(CC(=O)O)CCN(CC(=O)O)CCN(CC(=O)O)CC2)C(=O)NCCCC[C@@H]2NC(=O)[C@@H](Cc3ccccc3)NC(=O)[C@H](CC(=O)O)NC(=O)CNC(=O)[C@H](CCCNC(=N)N)NC2=O)NC(=O)[C@@H](Cc2ccccc2)NC(=O)[C@H](CC(=O)O)NC(=O)CNC1=O` [indium-111 labelled], the tissue uptake was 1.55 ± 0.21 %ID/g (athymic nude mice, female, U-87 MG glioma xenograft, U-87 MG tumour; intravenous, 3 µCi, 72 h).
The tracer uptake of `O=C(O)CCC(NP(=O)(O)OCCC[C@@H](NC(=O)CCC(NC(=O)CCCCCNC(=O)c1ccc([18F])cc1)C(=O)O)C(=O)O)C(=O)O` (stereo partly shown) is reported as 3.16 %ID/g (CWR22Rv1 tumour model; host not given, tumour; intravenous, 1 h, tumour-bearing).
With `C[C@H](NC(=O)[C@H](CCC(N)=O)NC(=O)[C@H](CCCCN)NC(=O)[C@H](C)NC(=O)[C@@H]1CCCN1C(=O)[C@H](C)NC(=O)[C@H](CCCCN)NC(=O)[C@H](CCC(N)=O)NC(=O)[C@H](C)NC(=O)[C@H](CCCCN)NC(=O)[C@H](CCC(N)=O)NC(=O)[C@@H]1CCCN1C(=O)[C@H](CCC(N)=O)NC(=O)[C@H](CCCCN)NC(=O)[C@H](C)NC(=O)[C@H](CCC(N)=O)NC(=O)[C@H](CCCCN)NC(=O)[C@H](C)NC(=O)[C@@H]1CCCN1C(=O)[C@H](C)NC(=O)[C@H](CCCCN)NC(=O)[C@H](CCC(N)=O)NC(=O)[C@H](C)NC(=O)[C@H](CCCCN)NC(=O)[C@H](CO)NC(=O)[C@H](Cc1ccc(O)cc1)NC(=O)CNC(=O)CNC(=O)CN)C(=O)N[C@@H](CCCCN)C(=O)N[C@@H](CCC(N)=O)C(=O)O` the Kd was 25 nM (binding, SPR Langmuir fit; rVλ6Wil fibrils; pH 7.4).
For `O=C(O)c1ccccc1-c1c2ccc(=O)c([As]3SCCS3)c-2oc2c([As]3SCCS3)c(O)ccc12`, the inhibition was greater than 50% (PTPN6 (Homo sapiens, UniProt P29350); enzyme activity, inhibitor, absorbance; 1 µM).
With `C[C@@]12CC[C@@H]3c4ccc(O)c(Cl)c4CC[C@H]3[C@@H]1CCC2=O` the inhibition was 43.6% (AKR1C3; enzyme activity, inhibitor, absorbance; 100 µM, pH 9).
`COC(=O)C1=CO[C@@H](OC(C)=O)[C@@H]2C(Cn3cc(CCCCN4C(=O)c5ccccc5C4=O)nn3)=CC[C@H]12` gave an inhibition of 47.55 ± 0.13% (BCHE; inhibitor; horse serum BuChE; 10000 µM).
For `COC(=O)c1ccc(NC(=O)c2cccc(CC3CCCCC3)n2)c(Cc2ccccc2)c1`, inhibition read “inactive” (Capsid scaffolding protein, protease domain (Human herpesvirus 8 type P, UniProt Q2HRB6); enzyme activity, inhibitor; concentration not given, pH 8).
The protein level of `CC(C)CC(O)(CC(C)C)c1cn(C(=O)N2CCCC2)nn1` is reported as 1.1 ± 0.04 (mouse T-cells; SILAC proteomics, measured: NIBAN; 1 nM, 6 h, unit not given; relative to: DMSO).
For `CCCCCCCCCCOCc1cn(CC2=CC[C@@H]3C(C(=O)OC)=CO[C@@H](OC(C)=O)[C@H]23)nn1`, the inhibition was 23.68 ± 0.17% (BCHE; inhibitor; horse serum BuChE; 10000 µM).
The inhibition of `C[C@@]12CC[C@H]3[C@@H](CCC4=CC(=O)C=C[C@@]43F)[C@@H]1CCC2=O` is reported as 24.1% (AKR1C3; enzyme activity, inhibitor, absorbance; 10 µM, pH 9).
For `Cc1cccnc1Nc1c2c(nc3ccccc13)CCC(C)C2` (stereo not shown), the inhibition was -139% (BCHE; enzyme activity, inhibitor; 100 µM).
`N#CC1(c2ccc3c(N)ncnn23)OC(COP(=O)(O)OP(=O)(O)OP(=O)(O)O)C(O)C1O` (stereo not shown): inhibition “no inhibition” (DNA-directed RNA polymerase II subunit RPB1/DNA-directed RNA polymerase II subunit RPB2 (Homo sapiens, UniProt P24928+P30876); enzyme activity; concentration not given).
For `COc1ccc(Nc2c3c(nc4ccccc24)CCC(C)C3)nc1` (stereo not shown), the inhibition was -112% (BCHE; enzyme activity, inhibitor; 50 µM).
`COC(=O)C1=CO[C@@H](OC(C)=O)[C@@H]2C(Cn3cc(COCc4ccc(OC)c(OC)c4)nn3)=CC[C@H]12` gave an inhibition of 35.99 ± 0.29% (BCHE; inhibitor; horse serum BuChE; 10000 µM).
`O=C(OCC(=O)c1ccc([N+](=O)[O-])cc1)/C(=C/c1ccc(Cl)cc1)NC(=O)c1ccccc1` gave an inhibition of 20.3% (Procathepsin L (CTSL, Homo sapiens, UniProt P07711); enzyme activity, inhibitor; 50 µM).
For `C[C@]12CC[C@@H]3c4cc(Cl)c(O)c(Cl)c4CC[C@H]3[C@@H]1CCC2=O`, the inhibition was 21.9% (AKR1C3; enzyme activity, inhibitor, absorbance; 10 µM, pH 9).
The inhibition of `Cc1cccnc1Nc1c2c(nc3ccccc13)CCCC2` is reported as 5.56% (BCHE; enzyme activity, inhibitor; 50 µM).
`CCCC[C@H](NC(=O)CCCCCCCNC(=O)c1ccc(NN)nc1)C(=O)N[C@H]1CC(=O)NCCCC[C@@H](C(N)=O)NC(=O)[C@H](Cc2c[nH]c3ccccc23)NC(=O)[C@H](CCCNC(=N)N)NC(=O)[C@@H](Cc2ccccc2)NC(=O)[C@H](Cc2c[nH]cn2)NC1=O` [technetium-99m labelled] gave a tissue uptake of 1.26 ± 0.59 %ID/g (C57 mouse, B16/F1 melanoma, tumor; 2 h, together with: NDP-MSH 10 µg (6.07 nmol) co-injected).
`NCC(CCC(N)C(=O)O)CC1OC(n2cnc3c(N)ncnc32)C(O)C1O` (stereo not shown) gave an inhibition of greater than 50% (PRMT6 (Homo sapiens, UniProt Q96LA8); enzyme activity, inhibitor; 20 µM).
The inhibition of `CCCc1cnn2c(NCc3ccc(C)s3)nc(N[C@H](CC)CO)nc12` is reported as 10 to 20% (CDK5; enzyme activity; 2 µM).
`COC(=O)C1=CO[C@@H](OC(C)=O)[C@@H]2C(Cn3cc(CCCO[Si](c4ccccc4)(c4ccccc4)C(C)(C)C)nn3)=CC[C@H]12` gave an inhibition of 22.3 ± 0.52% (BCHE; inhibitor; horse serum BuChE; 10000 µM).
For `O=C(CC(=O)N[C@H]1CCOC1=O)Cc1ccccc1`, the inhibition was 51% (AbaR (Acinetobacter baumannii); reporter gene, antagonist; 100 µM, together with: 2 700 nM).
The tissue uptake of `CSCC[C@H](NC(=O)[C@H](CC(C)C)NC(=O)[C@H](Cc1c[nH]cn1)NC(=O)CNC(=O)[C@@H](NC(=O)[C@H](C)NC(=O)[C@H](Cc1c[nH]c2ccccc12)NC(=O)[C@H](CCC(N)=O)NC(=O)CCCCCNC(=O)CNC(=O)CNC(=O)CNC(=O)CSC(C)=O)C(C)C)C(N)=O` [technetium-99m labelled] is reported as 0.3 ± 0.03 %ID/g (nude mouse, PC-3 xenograft, muscle; 30 min, together with: excess unlabelled conjugate).
`Fc1ccc(Nc2c3c(nc4ccccc24)CCCC3)cc1` gave an inhibition of -159% (BCHE; enzyme activity, inhibitor; 50 µM).
`CCN(Cc1ccccc1)C(=O)CCc1nc(CN2CCN(C(=O)Cc3ccc(OC)c(OC)c3)CC2)no1` has an inhibition of 1.17% (SCN8A (Homo sapiens, UniProt Q9UQD0); ion current, inhibitor, patch clamp; 10 µM).
`Cc1ccc2c(Nc3ccc4ccccc4n3)c3c(nc2c1)CCCC3` gave an inhibition of -88.5% (BCHE; enzyme activity, inhibitor; 50 µM).
`CCCC[C@H](NC(=O)CNC(=O)CNC(=O)c1ccc(NN)nc1)C(=O)N[C@H]1CC(=O)NCCCC[C@@H](C(N)=O)NC(=O)[C@H](Cc2c[nH]c3ccccc23)NC(=O)[C@H](CCCNC(=N)N)NC(=O)[C@@H](Cc2ccccc2)NC(=O)[C@H](Cc2c[nH]cn2)NC1=O` [technetium-99m labelled] gave a tissue uptake of 2.23 ± 0.52 %ID/g (C57 mouse, B16/F1 melanoma-bearing, stomach; intravenous, 0.5 h).
With `C[C@@](O)(C(F)F)[C@H](NC(=O)c1ccc(C#CC#CC2CC2)cc1)C(=O)NO` the inhibition was no more than 30% (MMP8 (Homo sapiens, UniProt P22894); enzyme activity, inhibitor; 30 µM).
The inhibition of `CC1CCc2nc3ccccc3c(Nc3ccc4ccccc4n3)c2C1` (stereo not shown) is reported as -23.4% (BCHE; enzyme activity, inhibitor; 50 µM).
With `CC(C)C[C@H](N)C(=O)N1CCC[C@H]1C(=O)N[C@@H](Cc1ccc(O)cc1)C(=O)N[C@@H](Cc1ccc(O)cc1)C(=O)O` the inhibition was 93.23 ± 0.21% (ACE (Oryctolagus cuniculus, UniProt P12822); inhibitor; rabbit; concentration not given, 3 h, 37 °C, after incubation with ACE).

Some of these lines once more:
For `CCCCCCCCCCOCc1cn(CC2=CC[C@@H]3C(C(=O)OC)=CO[C@@H](OC(C)=O)[C@H]23)nn1`, the inhibition was 23.68 ± 0.17% (BCHE; inhibitor; horse serum BuChE; 10000 µM).
The inhibition of `CC1CCc2nc3ccccc3c(Nc3ccc4ccccc4n3)c2C1` (stereo not shown) is reported as -23.4% (BCHE; enzyme activity, inhibitor; 50 µM).
For `Cc1cccnc1Nc1c2c(nc3ccccc13)CCC(C)C2` (stereo not shown), the inhibition was -139% (BCHE; enzyme activity, inhibitor; 100 µM).
For `CC(C)C[C@@H]1NC(=O)[C@H](C(C)C)NC(=O)[C@H](C)NC(=O)[C@H](Cc2ccc(O)cc2)NC(=O)[C@H](CCC(N)=O)NC(=O)[C@H](CC(C)C)NC(=O)[C@@H](Cc2ccc(O)cc2)NC(=O)CSC[C@@H](C(N)=O)NC(=O)[C@H](CCC(=O)O)NC(=O)[C@H](CCCNC(=N)N)NC(=O)[C@H](CCCNC(=N)N)NC(=O)[C@H](CCCCN)NC(=O)[C@H](Cc2c[nH]cn2)NC(=O)[C@H](CCCNC(=N)N)NC1=O`, inhibition read “inactive” (Furin (FURIN, Homo sapiens, UniProt P09958); enzyme activity; 10 µM).
`COC(=O)C1=CO[C@@H](OC(C)=O)[C@@H]2C(Cn3cc(COCc4ccc(OC)c(OC)c4)nn3)=CC[C@H]12` gave an inhibition of 35.99 ± 0.29% (BCHE; inhibitor; horse serum BuChE; 10000 µM).
